Experimental data pooled from the literature.
Lines come from different studies, so protocols differ. ± marks the error that the study gave.

SMILES | assay | system | setting | scale | quantity | value
COc1ccc([C@@H]2CC(=O)c3c(O)cc(O[C@@H]4O[C@H](CO[C@@H]5O[C@@H](C)[C@H](O)[C@@H](O)[C@H]5O)[C@@H](O)[C@H](O)[C@H]4O)cc3O2)cc1O |  | rat plasma | 31.25 ng/mL, three freeze-thaw cycles |  | measured concentration | 30.47 ± 0.29 ng/mL
CC(C)(O)c1ncc([S@](N)(=O)=NC(=O)Nc2c3c(cc4c2CCC4)CCC3)s1 |  | healthy human subjects |  | relative to: human liver blood flow | apparent oral clearance | ≤ 2%
COc1c2c(cc3oc(C)cc(=O)c13)O[C@H](C(C)(C)O[C@@H]1O[C@H](CO)[C@@H](O)[C@H](O)[C@H]1O)C2 |  | simulated gastric fluid with pepsin | 2 h, pH 1.2, 37 °C |  | transformation rate | 2.13%
Cn1c(=O)oc2ccc(-c3ccc(CC(C#N)NC(=O)C4CNCCCO4)c(F)c3)cc21 (stereo not drawn) |  | human | oral, 20 mg once daily, TEAE, multiple ascending dose |  | urine RBC positive incidence | 11.1%
Oc1cc2nc(c1)CNCCCNCCCNCCCNCCCNCCCNC2 | potentiometric titration | 0.15 M NaClO4 | 298.1 K, H5L5+ + H+ to H6L6+ |  | log K | 5.09
CC(C)c1cnc(-c2cc(Cl)ccc2F)cc1Nc1ccncc1C(=O)NC(CO)CO | item: Myalgia | solid tumour patients | oral, dose not given, phase I monotherapy |  | treatment-related adverse events | 7.1%
N=C(N)NCCC[C@H](NC(=O)COC(=O)[C@H](Cc1ccccc1)NC(=O)OCC1c2ccccc2-c2ccccc21)C(=O)NCC(=O)N[C@@H](CC(=O)O)C(=O)O | rheology |  | 10 mg/mL | relative to: Fmoc-FRGD at half concentration | softness ratio | ~3
O=C([O-])CN1CCN(CC(=O)[O-])CCN(CC(=O)NCC2CCC(C(=O)NC(Cc3ccc4ccccc4c3)C(=O)NCCCCC(NC(=O)NC(CCC(=O)O)C(=O)O)C(=O)O)CC2)CCN(CC(=O)[O-])CC1.[44Sc+3] (stereo not drawn) | PET/CT dosimetry | human patients, salivary glands | mean of 4 patients |  | residence time | 0.016 h
CCCC[C@H](NC(C)=O)C(=O)N[C@H]1CC(=O)NCCCC[C@@H](C(=O)N[C@@H](C(=O)N2CCC[C@@H]2C(N)=O)C(C)C)NC(=O)[C@H](Cc2c[nH]c3ccccc23)NC(=O)[C@H](CCCN=C(N)N)NC(=O)[C@@H](Cc2ccc3ccccc3c2)NC(=O)[C@@H]2CCCN2C1=O |  | healthy dogs, plasma | 2.25 mg/kg per day, day 28, median |  | plasma phosphorus | 4.1 mg/dL
C[C@H]1CO[C@@H]2Cn3cc(C(=O)NCc4ccc(F)cc4F)c(=O)c(O[C@@H]4O[C@H](C(=O)O)[C@@H](O)[C@H](O)[C@H]4O)c3C(=O)N12 |  | humans UGT1A9 wild type | intramuscular, dose not given, 1 weeks post-injection |  | participants with detectable plasma drug | 100%
CCCC(CCC)NC(=O)c1ccc(O)c(O)c1 | LC-MS | Sprague-Dawley rat, both sexes, rat liver microsomes | 10 µM of parent drug, 20 min, pH 7.4, together with: NADPH | relative to: parent drug at time zero | metabolite peak area | 29.9%
O=C(CCc1ccc(CNC(C(=O)OC2CCCC2)C2CCCCC2)cn1)NO (stereo not drawn) |  | healthy male volunteers | dose not given |  | tolerability | not toxic
COc1cc(-c2nc3ccccc3s2)cc(CN2CCN(CC(=O)OC(C)(C)C)CCN(CC(=O)OC(C)(C)C)CC2)c1O | UV-Vis pH titration |  | 25 °C, ionic strength 0.1 M NaCl |  | pKa4 | 11.8
C#CCOc1ccc(/C=C2\SC(=O)N(CC(=O)NCc3ccccc3)C2=O)cc1 | inverse Kirkwood-Buff integrals | binary solvent mixture | 298.15 K, mole fraction x1 1.00 |  | Kirkwood-Buff integral G2,3 | -325 cm³/mol
COc1c(Cl)ccc(Cl)c1C(=O)OC[C@H]1OC(O)[C@H](O)[C@@H]1O (stereo partly drawn) | HPLC | water | 7 days |  | dicamba formed | 2.8%
CCCC[C@H](NC(=O)[C@H](CC(C)C)N(C)C(=O)CNC(=O)[C@@H](NC(=O)[C@H](Cc1ccccc1)NC(=O)[C@H](CCCCN)NC(=O)[C@@H](N)CC(=O)O)C(C)C)C(N)=O |  | anaesthetised minipig | intranasal, 30 or 100 µg/kg |  | mean arterial pressure | no effect
COc1cc(OC)cc(C2=C3C(C)=C(I)C(/C=C/c4c[nH]c5ccc([N+](=O)[O-])cc45)=[N+]3[B-](F)(F)n3c(/C=C/c4c[nH]c5ccc([N+](=O)[O-])cc45)c(I)c(C)c32)c1 |  | dichloromethane |  |  | Stokes shift | 623 cm⁻¹
C=CC(=O)Nc1cc(Nc2nccc(-c3cn(C4CC4)c4ccccc34)n2)c(OC)cc1N(C)CCNC | radio-HPLC, co-eluting peaks pooled | human male, feces | oral, 110 mg, 0 to 240 h, sample holds 81.99% dose | relative to: sample radioactivity | share of radioactivity | 15%
CCOc1ccc2c(c1)C(C)=CC(C)(C)N2c1cc(OCC)cc2c1NC(C)(C)C=C2C | LC-MS/MS | laying hens, liquid whole egg | oral, 50 mg/kg feed of ethoxyquin, 56 days |  | residue concentration | 6.6 ± 1.9 ng/g
C=CC(=O)Nc1cc(Nc2nccc(-n3ccc4nc(OC)ccc43)n2)c(OC)cc1N(C)CCN(C)C |  | BALB/c nude mouse, H1975 intracranial tumour, plasma | oral, 60 mg/kg, 1 h |  | concentration | 2.7 µg/mL
COc1cc2c(cc1OC)CN(CCCCn1ccc3cc(OCC[18F])ccc31)C2 |  | male ICR mice | intravenous, 280 kBq, 15 min post-injection |  | pancreas uptake | 23.7 ± 2.35 %ID/g
Oc1ccc2nc1CNCCNCCNC2 | pH-potentiometric titration |  | I 0.15 M NaCl, 298 K |  | sum of log K N-donors | 22.8
NC(=O)c1ccc(C(=O)NOCc2ccc(Sc3cccc(Cl)c3)c(C(F)(F)F)c2)cc1 |  | male ICR mouse, plasma | intravenous, 10 mg/kg |  | Vss | 0.0929 L/kg
CCOC(=O)CCC(=O)Oc1ccc(/C=C/C(=O)/C=C(O)/C=C/c2ccc(OC(=O)CCC(=O)OCC)c(OC)c2)cc1OC |  | human plasma | 1.5 µM | relative to: human plasma over buffer pH 7.4 | hydrolysis rate ratio | 100
OCc1cn(Cc2ccc(-c3noc(-c4ccc(OCC[18F])c(C(F)(F)F)c4)n3)cc2)nn1 |  | rat, blood | intravenous, 30 min |  | tracer uptake | 0.42 %ID/g
C=CC(=C)CC[C@]1(C)[C@H](C)C[C@H](OC(=O)CCCCCCC)[C@@]23C(=C[C@H](OC(C)=O)C[C@@H]12)[C@@H](OC(C)=O)O[C@H]3OC(C)=O | haemolysis |  | 500 µM |  | haemolysis | 12.3%
CC1=N[C@H](C)Cc2c(-c3ccc(C)cc3)ccc(O)c21 | metabolic stability | male rat, liver microsomes | 1 µM, 30 min |  | compound remaining | < 7%
N=C(N)NCCC[C@@H]1NC(=O)[C@H](Cc2c[nH]c3ccccc23)NC(=O)[C@@H](CC2CCCCC2)NC(=O)[C@@H]2CCCN2C(=O)[C@@H](NC(=O)CCc2ccccc2)CCCNC1=O |  | C57BL/6J mice, brain | intraperitoneal, 1 mg/kg, two-compartment model |  | apparent distributional clearance | 2.71 ng/(min·ng/g)
COC(=O)c1ccc(CCc2cc3cc4nc(c(OC)c5[nH]c(cc6nc(cc2[nH]3)CC6(C)C)cc5CCCNC(=O)OC(C)(C)C)C(=O)C4(C)C)cc1 |  | DMF | room temperature |  | Qy absorption FWHM | 23 nm
C[C@H](NC(=O)[C@H](C)NC(=O)[C@H](C)NC(=O)[C@H](CCCNC(=N)N)NC(=O)[C@H](CCCNC(=N)N)NC(=O)[C@H](C)NC(=O)[C@H](C)NC(=O)[C@H](C)NC(=O)[C@H](C)NC(=O)[C@H](CCCNC(=N)N)NC(=O)[C@H](CCCNC(=N)N)NC(=O)[C@H](C)NC(=O)[C@H](C)NC(=O)[C@H](C)NC(=O)[C@H](C)NC(=O)[C@H](CCCNC(=N)N)NC(=O)[C@H](CCCNC(=N)N)NC(=O)c1ccc2c(c1)C(=O)OC21c2ccc(O)cc2Oc2cc(O)ccc21)C(=O)N[C@@H](C)C(=O)N[C@@H](CCCNC(=N)N)C(=O)N[C@@H](CCCNC(=N)N)C(=O)O |  | bovine cartilage explants | 24 h, together with: 10 x PBS |  | retained fraction | ~25%

For quick reference, copied from above:
SMILES | assay | system | setting | scale | quantity | value
O=C(CCc1ccc(CNC(C(=O)OC2CCCC2)C2CCCCC2)cn1)NO (stereo not drawn) |  | healthy male volunteers | dose not given |  | tolerability | not toxic
OCc1cn(Cc2ccc(-c3noc(-c4ccc(OCC[18F])c(C(F)(F)F)c4)n3)cc2)nn1 |  | rat, blood | intravenous, 30 min |  | tracer uptake | 0.42 %ID/g
C=CC(=O)Nc1cc(Nc2nccc(-c3cn(C4CC4)c4ccccc34)n2)c(OC)cc1N(C)CCNC | radio-HPLC, co-eluting peaks pooled | human male, feces | oral, 110 mg, 0 to 240 h, sample holds 81.99% dose | relative to: sample radioactivity | share of radioactivity | 15%
